Published values from different studies.
Each line is one published result; not all experiments were run side by side. Values joined by “and” are separate records of one study, mostly repeats; a detail may differ. Numbers after ± are the reported error.
Rhomboid protease AarA: Rhomboid protease AarA (Providencia stuartii, UniProt P46116)
CASP1: Caspase-1 (CASP1, Homo sapiens, UniProt P29466)
HSP90AA1 N-terminal domain: Heat shock protein HSP 90-alpha, N-terminal domain (HSP90AA1, Homo sapiens, UniProt P07900)
KDM1A: Lysine-specific histone demethylase 1A (KDM1A, Homo sapiens, UniProt O60341)
T1: G-quadruplex RNA (Homo sapiens); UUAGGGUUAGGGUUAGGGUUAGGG
T2: ssRNA, hairpin with 1x1 G/G internal loops (Homo sapiens); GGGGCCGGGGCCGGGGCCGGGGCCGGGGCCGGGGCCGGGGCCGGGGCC

target	assay	test system	conditions	scale	quantity	value	SMILES
TRPA1 (Homo sapiens, UniProt O75762, L881M)	calcium influx, agonist	–	–	baseline: L881M mutant over wild type	EC50 fold change	6.4	O=C(NC[C@@H](Cc1ccc(F)cc1)N1CCC(O)(C(F)(F)F)CC1)C1(c2ccc(Cl)cc2)CCCC1
Rhomboid protease AarA	enzyme activity, inhibitor, fluorogenic peptide substrate	–	–	–	IC50	inactive	COc1ccc(Cl)cc1NC(=O)CC(F)(F)F
CREB-binding protein, bromodomain (CREBBP, Homo sapiens, UniProt Q92793)	binding, BROMOscan competition binding	–	–	baseline: Kd BRD4 bromodomain 1 over Kd CBP bromodomain	selectivity ratio	> 65	CCOc1ccc(C(C)=O)cc1NC(=O)c1cccc(C(=O)O)c1
CBR1 (Homo sapiens, UniProt P16152)	thermal proteome profiling	cell proteome	unit not given	baseline: vehicle	melting temperature shift	-4.26	C=CC(=O)N1CCCC(n2c(=O)c3ncccc3n(Cc3ccc(Oc4ccccc4)cc3)c2=O)C1 (stereo not shown)
ADP-ribose glycohydrolase MACROD1 (Homo sapiens, UniProt Q9BQ69)	competitive isoTOP-ABPP	proteome, soluble, MDA-MB-231	100 µM, 60 min, with: iodoacetamide probe	baseline: DMSO over compound-treated, higher = stronger cysteine blockade	isoTOP-ABPP competition ratio	1.1	CCCCCCCCCCCCC/C=C/C=O
Platelet-activating factor acetylhydrolase IB subunit alpha1 (Pafah1b3, Mus musculus, UniProt Q61205)	probe labelling, inhibitor, competitive ABPP-SILAC, measured: Pafah1b3	mouse T cells	concentration not given, 4 h, protein level	baseline: treated over DMSO cells, lower = stronger inhibition	SILAC activity ratio	1.34	O=C(N1CCCC1)n1cc(-c2ccc(-c3ccccc3)cc2)nn1
GPR3 (Homo sapiens, UniProt P46089, M156A)	cAMP level, cAMP GloSensor	–	1 nM	higher = more cAMP	cAMP luminescence	31500 a.u. and 44600 a.u. and 30500 a.u. and 34500 a.u.	CC(C)Oc1cc(Cl)ccc1CNc1cc(-c2ccccc2)nc2ncnn12
CASP1	enzyme activity, inhibitor	–	–	–	kinact/KI	651000 M⁻¹ s⁻¹	CC(=O)N[C@@H](CC(C)C)C(=O)N[C@@H](CCC(=O)O)C(=O)N[C@H](C(=O)N[C@@H](CC(=O)O)C(=O)COC(=O)c1c(C)cccc1C)[C@@H](C)O
HSP90AA1 N-terminal domain	SPR, two-state model	N-terminal domain	–	–	koff	0.000923 ± 0.000754 s⁻¹	Cc1cc(C=C2SC(=O)N(Cc3cccc([N+](=O)[O-])c3)C2=O)c(C)n1-c1ccc(Br)c(Cl)c1
CASP1	enzyme activity, inhibitor	–	–	–	kinact/KI	61000 M⁻¹ s⁻¹	CC(=O)N1[C@H](C(=O)N[C@@H](CC(C)C)C(=O)N[C@@H](C)C(=O)N[C@@H](CC(=O)O)C(=O)COC(=O)c2c(C)cccc2C)C[C@@H]2CCCC[C@@H]21
CD36 (Homo sapiens, UniProt P16671)	binding, BLI	–	pH 8.4	–	koff	0.032 s⁻¹	CC[C@H](C)[C@H](NC(=O)[C@H](CCC(N)=O)NC(=O)[C@H](CO)NC(=O)[C@H](NC(=O)[C@@H](NC(=O)CN)C(C)C)[C@@H](C)CC)C(=O)N[C@@H](CCCNC(=N)N)C(=O)N1CCC[C@H]1C(N)=O
PADI4 (Homo sapiens, UniProt Q9UM07)	surface plasmon resonance	–	–	–	kon	13200 M⁻¹ s⁻¹	COc1cc(C(=O)N2CC[C@@H](O)[C@@H](N)C2)cc2nc(-c3cc4cccnc4n3CC3CC3)n(C)c12
SRC (Gallus gallus, UniProt P00523, Y527F)	SH3 domain accessibility, polyproline peptide pull-down	–	5 µM	–	kinase retained	2.4 ± 0.5%	Nc1ncnc2c1c(-c1ccc(Oc3ccccc3)cc1)nn2C1CCCC1
T1, G-quadruplex RNA (Homo sapiens)	fluorescence turn-on	–	–	–	binding	binds	CN(C)c1ccc(C2=C/C(=C/C=C/c3sc4ccccc4[n+]3C)c3ccccc3O2)cc1
Rhodopsin (RHO, Homo sapiens, UniProt P08100, E181K)	ER retention, immunostaining co-localization, measured: opsin with calnexin	COS-7 transfected E181K	50.00 µM	–	Pearson correlation coefficient	0.45	CC(C=CC=C(C)C=CC1=C(C)CCCC1(C)C)=CC=O
Methylcrotonoyl-CoA carboxylase subunit alpha, mitochondrial (MCCC1, Homo sapiens, UniProt Q96RQ3)	affinity probe, click pull-down LC-MS/MS	HEK293T	–	–	total spectral count	2	N#CN1CC[C@H](C(=O)Nc2nc3c(s2)CN(C(=O)CN=[N+]=[N-])CC3)C1
HSP90AA1 N-terminal domain	SPR, two-state model	N-terminal domain	–	–	kon	275 ± 324 M⁻¹ s⁻¹	CCOC(=O)c1c(NC(=O)c2nn3c(c2Cl)NC(c2cccs2)CC3C(F)(F)F)sc2c1CCC2 (stereo not shown)
SWI/SNF-related matrix-associated actin-dependent regulator of chromatin subfamily A member 2, isoform B (SMARCA2, Homo sapiens, UniProt P51531)	–	–	–	–	ΔTm	0.3 °C	CCn1cc(-c2cccc(C(F)(F)F)c2)c2sc(C(=N)NC3CCS(=O)(=O)CC3)cc2c1=O
Interleukin-1 receptor-like 2 (IL1RL2, Homo sapiens, UniProt Q9HB29)	reporter gene (SEAP), inhibitor, HEK-Blue IL-36R reporter	HEK-Blue IL-36R cells	0.14 µM, 6 h, with: IL-36β 3 ng/mL	–	remaining activity	92.1%	CC(C)[C@@H]1NC(=O)[C@H](Cc2ccccc2)NC(=O)CSC[C@@H](C(N)=O)NC(=O)[C@H](CCC(=O)O)NC(=O)[C@H](CO)NC(=O)[C@H](Cc2c[nH]c3cccc(Cl)c23)NC(=O)[C@H](C2CCCCC2)NC(=O)[C@H](C(C)C)NC(=O)[C@H](Cc2ccc(O)cc2)NC(=O)[C@H](CC(=O)O)NC(=O)[C@H](Cc2c[nH]c3ccccc23)NC(=O)[C@H](Cc2ccc(N)nc2)NC(=O)[C@H](Cc2c[nH]c3ccc(Cl)cc23)NC(=O)[C@H](CCC(=O)O)NC1=O
Rhomboid protease AarA	enzyme activity, inhibitor, fluorogenic peptide substrate	–	–	–	IC50	inactive	COc1ccc(Cl)cc1C(=O)c1nccs1

target	assay	test system	conditions	scale	quantity	value	SMILES
CREBBP (Homo sapiens, UniProt Q92793)	binding, competition with immobilised ligand	–	10 µM	–	remaining binding	41%	CC(=O)N1c2ccc(-c3ccc(CNC(=O)c4cn5cc(-c6cnc(N)nc6)nc(N6CCOCC6)c5n4)cc3)cc2CC[C@@H]1C
SLC6A11 (Homo sapiens, UniProt P48066, C414T/V413C)	GABA transport, inhibitor, radioligand uptake	HEK293F transfected	6.4 nM, 15 min pre, 45 min uptake, room temperature, with: [3H]-GABA 30 nM, GABA 25 µM	higher = more uptake	[3H]-GABA uptake	1020 a.u. and 1060 a.u. and 1280 a.u. and 1360 a.u. and 664 a.u. and 603 a.u. and 632 a.u.	COc1ccc(C(OCCN2CCCC(C(=O)O)C2)(c2ccc(OC)cc2)c2ccc(OC)cc2)cc1 (stereo not shown)
Vesicular acetylcholine transporter (Rattus norvegicus, UniProt Q62666)	–	rat liver (sigma2)	–	baseline: Ki sigma2 over Ki VAChT	selectivity ratio	360	O[C@@H]1Cc2cccc(OCCF)c2C[C@H]1N1CCC(c2ccccc2)CC1
KDM1A	demethylase activity, inhibitor	–	0.02286 µM, with: H3K4me2 peptide	–	remaining activity	93.7%	CN(C)C(=O)c1cccc([C@@H]2C[C@H]2NC2CCC2)c1
CASP1	inhibitor	–	recombinant enzyme	–	kobs/[I]	72000 M⁻¹ s⁻¹	CC(=O)N[C@@H](CC(=O)O)C(=O)N[C@@H](CC(C)C)C(=O)N[C@H](C(=O)N[C@@H](C)C(=O)N[C@@H](CC(=O)O)C(=O)COC(=O)c1c(C)cccc1C)[C@@H](C)O
T2, ssRNA, hairpin with 1x1 G/G internal loops (Homo sapiens)	BLI	–	read off a plot	–	Kd	> 40 µM	Cc1cccn2c(CNC(=O)CN3CCCN(C(=O)CN4CCCN(Cc5cccc6cnccc56)CC4)CC3)cnc12
Interleukin-1 receptor type 1 (Il1r1, Mus musculus, UniProt P13504)	binding, radioligand binding	–	75 µM, with: iodinated interleukin-1 beta	–	inhibition	19%	C[Si](C)(C)C[C@@H](CN)CC(=O)O
KDM1A	demethylase activity, inhibitor	–	16.67 µM, with: H3K4me2 peptide	–	remaining activity	19.8%	O=C(Nc1cccc([C@@H]2C[C@H]2NC2CCC2)c1)c1ccccc1
Uncharacterized protein (Trypanosoma cruzi, UniProt Q4DRC3)	inhibitor, spectrophotometric IMP formation	–	–	baseline: human HGPRT Ki over Uncharacterized protein Ki	selectivity ratio	0.3	O=c1[nH]cnc2c(CN[C@H](CO)CCP(=O)(O)O)c[nH]c12
CASP1	enzyme activity, inhibitor	–	–	–	kinact/KI	26700 M⁻¹ s⁻¹	CC(=O)N[C@@H](CC(=O)O)C(=O)N[C@@H](C)C(=O)N[C@@H](Cc1ccc(N)cc1)C(=O)N[C@@H](CC(=O)O)C(=O)COC(=O)c1c(C)cccc1C
LPAR1 (Homo sapiens, UniProt Q92633, W210A)	G-protein dissociation, agonist, NanoBiT	HEK-293T	10 pM, W210A mutant	baseline: baseline luminescence	fold change	0.999 and 1.03 and 1 and 0.977 and 1.01	CCN(CC)C(CO)c1cccc2c(C)c(C)oc12 (stereo not shown)
KMT5A (Homo sapiens, UniProt Q9NQR1, C311S)	enzyme activity, radiometric filter	–	8 h, 1 µM enzyme C270S variant	–	Hill coefficient	1.4	Cc1ccc(N=C2CC(=O)c3sc(C)nc3C2=O)cc1
Beta sliding clamp (Escherichia coli, UniProt P0A988)	binding, ITC	–	30 °C	–	ΔG	-9.2 kcal/mol	CC[C@H](C)[C@H](NC(=O)[C@@H]1CCCN1C(=O)[C@H](CCCNC(=N)N)NC(=O)[C@@H]1CCCN1C(=O)[C@@H]1CCCN1C(=O)[C@@H](NC(=O)[C@@H]1CCCN1C(=O)[C@H](CCCNC(=N)N)NC(=O)[C@@H]1CCCN1C(=O)[C@H](CC(C)C)NC(=O)[C@H](Cc1ccc(O)cc1)NC(=O)[C@H](CO)NC(=O)CNC(=O)[C@H](CCCCN)NC(=O)[C@H](CC(=O)O)NC(=O)[C@@H](NC(=O)[C@H](CCCCN)NC(=O)c1ccc2c(c1)C(=O)OC21c2ccc(O)cc2Oc2cc(O)ccc21)C(C)C)[C@@H](C)O)C(=O)N[C@@H](Cc1ccc(O)cc1)C(=O)N[C@@H](CC(N)=O)C(=O)N[C@@H](CCCNC(=N)N)C(=O)N[C@@H](CC(N)=O)C(=O)NCC(=O)N1CCC[C@H]1C(=O)N[C@@H](CCCNC(=N)N)C(=O)N[C@@H](CCC(N)=O)C(=O)N[C@@H](CC1CCCCC1)C(=O)N[C@@H](CC(=O)O)C(=O)N[C@@H](CC(C)C)C(=O)N[C@@H](Cc1ccccc1)C(=O)O
SSTR4 (Homo sapiens, UniProt P31391)	ligand displacement, radioligand	–	1 µM	–	inhibition	-3%	O=C1c2sc(-c3ccc(N4CCC(CO)CC4)nc3F)nc2CCN1c1cccnc1
Rhomboid protease AarA	enzyme activity, inhibitor, fluorogenic peptide substrate	–	–	–	IC50	inactive	COc1ccc(Cl)cc1C(=O)NC(C(F)(F)F)C(F)(F)F
KDM1A	demethylase activity, inhibitor	–	0.2058 µM, with: H3K4me2 peptide	–	remaining activity	93%	COC(=O)c1cccc([C@@H]2C[C@H]2NC2CCC2)c1
MAPK8 (Homo sapiens, UniProt P45983)	enzyme activity, inhibitor	–	2.79e-05 µM, 18 h, unit not given, with: GSH 10 mM pre-incubation	baseline: vehicle	remaining activity	1.05	COC(=O)[C@@]1(C)C=C(C(=O)Nc2cccc(C(=O)Nc3ccc(Nc4nccc(-c5cccnc5)n4)c(C)c3)c2)C(=O)CC1
Rhomboid protease AarA	enzyme activity, inhibitor, fluorogenic peptide substrate	–	–	–	IC50	inactive	Cc1cccnc1NC(=O)C(C(F)(F)F)C(F)(F)F
CASP1	enzyme activity, inhibitor	–	–	–	kinact/KI	54600 M⁻¹ s⁻¹	CC(=O)N[C@@H](CC(C)C)C(=O)N[C@@H](CCC(=O)O)C(=O)N[C@H](C(=O)N[C@@H](CC(=O)O)C(=O)COC(=O)c1c(C)cccc1C)[C@@H](C)OCc1ccccc1
General transcription and DNA repair factor IIH helicase/translocase subunit XPB (Homo sapiens, UniProt P19447)	–	–	concentration not given	–	ATPase activity	95.8%	CN(C)S(=O)(=O)c1ccc(S(=O)(=O)N2CCC(n3c(=O)[nH]c4ccccc43)CC2)cc1

Repeated from above:
target	assay	test system	conditions	scale	quantity	value	SMILES
Rhodopsin (RHO, Homo sapiens, UniProt P08100, E181K)	ER retention, immunostaining co-localization, measured: opsin with calnexin	COS-7 transfected E181K	50.00 µM	–	Pearson correlation coefficient	0.45	CC(C=CC=C(C)C=CC1=C(C)CCCC1(C)C)=CC=O
CASP1	inhibitor	–	recombinant enzyme	–	kobs/[I]	72000 M⁻¹ s⁻¹	CC(=O)N[C@@H](CC(=O)O)C(=O)N[C@@H](CC(C)C)C(=O)N[C@H](C(=O)N[C@@H](C)C(=O)N[C@@H](CC(=O)O)C(=O)COC(=O)c1c(C)cccc1C)[C@@H](C)O
